Experimental data from different studies.
A part holds a random share of what one study measured. “And” joins repeats or separate records; there may be more than shown.
UniProt P52333, sequence (whole entry, looked up): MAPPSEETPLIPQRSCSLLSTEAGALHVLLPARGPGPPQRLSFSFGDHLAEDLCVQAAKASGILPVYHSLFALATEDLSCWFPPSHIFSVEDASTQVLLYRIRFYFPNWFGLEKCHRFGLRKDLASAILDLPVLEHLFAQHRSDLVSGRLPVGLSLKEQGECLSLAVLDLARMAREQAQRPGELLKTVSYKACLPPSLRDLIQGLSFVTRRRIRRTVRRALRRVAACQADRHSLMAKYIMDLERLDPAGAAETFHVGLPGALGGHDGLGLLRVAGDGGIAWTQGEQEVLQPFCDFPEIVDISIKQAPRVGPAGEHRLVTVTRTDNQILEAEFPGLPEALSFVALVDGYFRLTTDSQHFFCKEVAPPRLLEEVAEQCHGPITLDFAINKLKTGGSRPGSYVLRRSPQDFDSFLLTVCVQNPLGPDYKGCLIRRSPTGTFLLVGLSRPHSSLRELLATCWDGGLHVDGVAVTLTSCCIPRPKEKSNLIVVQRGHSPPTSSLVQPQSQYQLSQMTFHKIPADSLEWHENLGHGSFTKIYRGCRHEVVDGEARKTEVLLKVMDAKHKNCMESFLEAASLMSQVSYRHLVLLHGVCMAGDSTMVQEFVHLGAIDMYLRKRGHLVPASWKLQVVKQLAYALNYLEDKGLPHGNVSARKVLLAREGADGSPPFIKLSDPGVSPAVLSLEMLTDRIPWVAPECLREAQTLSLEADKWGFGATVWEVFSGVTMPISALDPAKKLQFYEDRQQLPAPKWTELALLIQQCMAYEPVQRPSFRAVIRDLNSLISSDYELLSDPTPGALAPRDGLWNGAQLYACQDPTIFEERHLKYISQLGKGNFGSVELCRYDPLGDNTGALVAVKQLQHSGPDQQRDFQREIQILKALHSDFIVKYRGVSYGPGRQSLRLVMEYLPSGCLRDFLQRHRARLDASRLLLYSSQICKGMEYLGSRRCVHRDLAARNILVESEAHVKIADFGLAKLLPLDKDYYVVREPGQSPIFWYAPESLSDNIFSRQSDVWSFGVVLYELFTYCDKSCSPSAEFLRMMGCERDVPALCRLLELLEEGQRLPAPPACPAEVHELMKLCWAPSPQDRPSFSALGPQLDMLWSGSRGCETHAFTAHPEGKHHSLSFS
UniProt Q9Y616, sequence (whole entry, looked up): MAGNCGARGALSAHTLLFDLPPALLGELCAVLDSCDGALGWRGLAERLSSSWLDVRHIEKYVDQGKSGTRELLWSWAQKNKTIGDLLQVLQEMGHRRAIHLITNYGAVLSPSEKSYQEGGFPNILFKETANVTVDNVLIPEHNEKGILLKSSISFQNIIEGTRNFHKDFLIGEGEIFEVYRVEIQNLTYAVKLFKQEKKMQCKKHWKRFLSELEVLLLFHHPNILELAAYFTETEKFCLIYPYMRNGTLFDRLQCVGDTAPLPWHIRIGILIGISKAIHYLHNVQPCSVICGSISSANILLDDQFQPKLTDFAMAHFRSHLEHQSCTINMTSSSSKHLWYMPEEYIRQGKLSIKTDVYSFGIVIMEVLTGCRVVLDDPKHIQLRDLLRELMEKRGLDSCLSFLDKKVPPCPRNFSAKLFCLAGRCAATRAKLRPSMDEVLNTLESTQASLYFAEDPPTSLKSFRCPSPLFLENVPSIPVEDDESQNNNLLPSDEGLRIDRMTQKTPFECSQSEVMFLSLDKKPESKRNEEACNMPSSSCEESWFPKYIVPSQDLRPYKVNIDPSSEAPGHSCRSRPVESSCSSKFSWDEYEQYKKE
UniProt Q12866, sequence (whole entry, looked up): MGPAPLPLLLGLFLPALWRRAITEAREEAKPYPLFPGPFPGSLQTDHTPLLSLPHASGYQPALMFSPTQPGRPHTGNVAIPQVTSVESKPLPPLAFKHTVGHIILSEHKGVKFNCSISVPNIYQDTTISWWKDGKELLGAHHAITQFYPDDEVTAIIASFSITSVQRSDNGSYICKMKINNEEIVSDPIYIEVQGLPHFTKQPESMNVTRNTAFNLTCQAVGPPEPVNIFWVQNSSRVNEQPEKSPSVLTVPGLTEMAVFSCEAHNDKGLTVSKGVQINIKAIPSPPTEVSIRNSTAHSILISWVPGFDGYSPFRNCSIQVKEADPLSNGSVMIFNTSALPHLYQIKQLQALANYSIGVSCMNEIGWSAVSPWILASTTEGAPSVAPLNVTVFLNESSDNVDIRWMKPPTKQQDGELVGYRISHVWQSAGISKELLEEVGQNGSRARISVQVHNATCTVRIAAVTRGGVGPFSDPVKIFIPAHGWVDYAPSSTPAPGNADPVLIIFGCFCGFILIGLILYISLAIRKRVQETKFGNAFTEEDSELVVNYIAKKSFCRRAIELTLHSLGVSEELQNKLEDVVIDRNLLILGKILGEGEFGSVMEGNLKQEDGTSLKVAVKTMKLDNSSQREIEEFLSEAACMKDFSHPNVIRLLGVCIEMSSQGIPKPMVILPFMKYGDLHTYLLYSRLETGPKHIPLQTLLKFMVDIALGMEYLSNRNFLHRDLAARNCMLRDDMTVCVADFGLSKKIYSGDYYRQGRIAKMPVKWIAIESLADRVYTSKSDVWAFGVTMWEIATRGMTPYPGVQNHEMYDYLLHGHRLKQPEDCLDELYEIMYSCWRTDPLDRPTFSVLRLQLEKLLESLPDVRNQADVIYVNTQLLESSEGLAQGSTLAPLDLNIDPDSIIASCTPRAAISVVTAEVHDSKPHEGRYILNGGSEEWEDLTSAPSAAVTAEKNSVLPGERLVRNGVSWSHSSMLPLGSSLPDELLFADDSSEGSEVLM
UniProt Q04912, sequence (whole entry, looked up): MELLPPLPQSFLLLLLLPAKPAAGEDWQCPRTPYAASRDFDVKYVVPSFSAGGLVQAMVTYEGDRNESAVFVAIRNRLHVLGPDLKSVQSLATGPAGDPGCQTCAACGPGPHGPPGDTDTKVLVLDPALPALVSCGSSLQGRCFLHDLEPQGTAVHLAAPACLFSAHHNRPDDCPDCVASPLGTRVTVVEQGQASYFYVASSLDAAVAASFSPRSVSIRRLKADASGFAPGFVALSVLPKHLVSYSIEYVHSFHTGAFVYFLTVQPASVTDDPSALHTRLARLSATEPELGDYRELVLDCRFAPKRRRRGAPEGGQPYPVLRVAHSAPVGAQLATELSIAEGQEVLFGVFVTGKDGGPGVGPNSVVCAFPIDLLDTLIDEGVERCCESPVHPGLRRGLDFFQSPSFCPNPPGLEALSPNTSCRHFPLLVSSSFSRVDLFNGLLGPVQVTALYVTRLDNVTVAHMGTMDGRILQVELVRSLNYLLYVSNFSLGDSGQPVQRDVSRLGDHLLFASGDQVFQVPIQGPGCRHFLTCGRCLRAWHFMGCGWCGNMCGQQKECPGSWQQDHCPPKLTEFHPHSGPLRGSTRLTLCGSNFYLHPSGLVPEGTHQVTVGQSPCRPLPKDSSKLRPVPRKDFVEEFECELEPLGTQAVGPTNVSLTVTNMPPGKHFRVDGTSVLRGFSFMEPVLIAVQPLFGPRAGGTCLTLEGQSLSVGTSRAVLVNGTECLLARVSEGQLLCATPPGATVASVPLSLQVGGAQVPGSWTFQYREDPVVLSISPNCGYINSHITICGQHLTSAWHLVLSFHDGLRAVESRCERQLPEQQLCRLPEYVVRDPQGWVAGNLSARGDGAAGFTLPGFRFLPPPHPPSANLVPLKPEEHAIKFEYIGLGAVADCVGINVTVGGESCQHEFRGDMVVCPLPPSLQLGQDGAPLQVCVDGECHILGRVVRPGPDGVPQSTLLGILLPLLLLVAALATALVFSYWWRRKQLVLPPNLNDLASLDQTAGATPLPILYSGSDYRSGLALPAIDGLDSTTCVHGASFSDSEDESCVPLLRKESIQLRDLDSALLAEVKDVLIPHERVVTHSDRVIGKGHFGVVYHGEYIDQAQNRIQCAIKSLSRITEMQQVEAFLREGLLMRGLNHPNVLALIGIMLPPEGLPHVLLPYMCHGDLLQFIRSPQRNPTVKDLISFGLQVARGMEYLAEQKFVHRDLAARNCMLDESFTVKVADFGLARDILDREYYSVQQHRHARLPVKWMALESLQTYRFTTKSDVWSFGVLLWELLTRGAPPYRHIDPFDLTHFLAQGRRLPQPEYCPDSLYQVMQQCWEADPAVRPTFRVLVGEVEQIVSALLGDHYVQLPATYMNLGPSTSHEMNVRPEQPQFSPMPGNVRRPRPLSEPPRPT
UniProt P36507, sequence (whole entry, looked up): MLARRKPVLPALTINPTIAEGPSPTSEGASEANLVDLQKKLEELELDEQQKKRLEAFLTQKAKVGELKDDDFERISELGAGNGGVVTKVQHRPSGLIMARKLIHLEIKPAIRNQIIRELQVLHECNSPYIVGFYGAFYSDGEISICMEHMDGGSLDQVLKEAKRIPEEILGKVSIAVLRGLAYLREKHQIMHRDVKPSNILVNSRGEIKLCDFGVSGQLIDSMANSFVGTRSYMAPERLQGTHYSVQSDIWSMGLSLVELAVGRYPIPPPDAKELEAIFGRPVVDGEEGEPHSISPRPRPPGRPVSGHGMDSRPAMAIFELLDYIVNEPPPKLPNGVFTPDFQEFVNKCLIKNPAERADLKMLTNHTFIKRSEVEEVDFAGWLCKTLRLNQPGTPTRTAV
UniProt P19525, sequence (whole entry, looked up): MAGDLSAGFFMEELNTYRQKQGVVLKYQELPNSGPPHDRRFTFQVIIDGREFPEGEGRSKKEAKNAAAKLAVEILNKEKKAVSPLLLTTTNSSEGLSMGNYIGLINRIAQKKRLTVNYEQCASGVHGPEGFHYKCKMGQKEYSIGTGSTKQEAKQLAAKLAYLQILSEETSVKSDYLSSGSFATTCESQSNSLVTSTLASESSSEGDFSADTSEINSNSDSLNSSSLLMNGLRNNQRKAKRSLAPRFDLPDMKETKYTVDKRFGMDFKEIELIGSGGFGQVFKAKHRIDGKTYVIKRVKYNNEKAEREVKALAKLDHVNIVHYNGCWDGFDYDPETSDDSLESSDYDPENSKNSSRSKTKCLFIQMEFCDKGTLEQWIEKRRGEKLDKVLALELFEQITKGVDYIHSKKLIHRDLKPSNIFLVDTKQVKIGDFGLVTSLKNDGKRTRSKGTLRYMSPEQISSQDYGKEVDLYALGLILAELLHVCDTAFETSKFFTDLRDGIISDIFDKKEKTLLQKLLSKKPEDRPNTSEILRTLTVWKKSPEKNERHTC

Sample 1
SMILES: c1ccc2c(-c3ccncc3)c[nH]c2c1
Effect on: enzyme activity
Action: inhibitor
Tested at: 0.5 µM
Baseline: control
Measurement: remaining activity
FRK (Homo sapiens, UniProt P42685): 106%
TAOK2 (Homo sapiens, UniProt Q9UL54): 92.1%
TEK (Homo sapiens, UniProt Q02763): 101%
ACVR1B (Homo sapiens, UniProt P36896): 98.8%
MST1R (Homo sapiens, UniProt Q04912): 98.9%
NEK1 (Homo sapiens, UniProt Q96PY6): 101%
MERTK (Homo sapiens, UniProt Q12866): 93%
GSK3B (Homo sapiens, UniProt P49841): 104%
CSNK1G3 (Homo sapiens, UniProt Q9Y6M4): 108%
TBK1 (Homo sapiens, UniProt Q9UHD2): 93.4%
MAP3K14 (Homo sapiens, UniProt Q99558): 112%
ULK3 (Homo sapiens, UniProt Q6PHR2): 83%
JAK3 (Homo sapiens, UniProt P52333): 95.3%
MAP2K2 (Homo sapiens, UniProt P36507): 103%
MAPK3 (Homo sapiens, UniProt P27361): 98.9%

Sample 2
Target: GTPase KRas (KRAS, Homo sapiens, UniProt P01116, Q61L)
Effect on: binding
Action: competitor
Method: NanoBRET
Cell line: HEK293
Tested at: 5.08 nM
Measurement: normalized BRET
CC(C)C(=O)N1CCN(c2nc(OC[C@@H]3CCCN3C)nc3c2CCN(c2cccc4cccc(Cl)c24)C3)C[C@@H]1CC#N: 102% and 97.1% and 94.1%
CCC(=O)N1CCN(c2nc(OC[C@@H]3CCCN3C)nc3c2CCN(c2cccc4cccc(Cl)c24)C3)C[C@@H]1CC#N: 99.2% and 97% and 102%
CN1CCC[C@H]1COc1nc2c(c(N3CCN(S(C)(=O)=O)[C@@H](CC#N)C3)n1)CCN(c1cccc3cccc(Cl)c13)C2: 101% and 94.5%
CC(=O)N1CCN(c2nc(OC[C@@H]3CCCN3C)nc3c2CCN(c2cccc4cccc(Cl)c24)C3)C[C@@H]1CC#N: 104% and 92.9% and 101%

Sample 3
Cell line: A-375
Tested at: 100 µM
Time: 60 h
Measurement: viability
CO[C@H]1C[C@@H]2CC[C@@H](C)[C@@](O)(O2)C(=O)C(=O)N2CCCC[C@H]2C(=O)O[C@H]([C@H](C)C[C@@H]2CC[C@@H](OCCO)[C@H](OC)C2)CC(=O)[C@H](C)/C=C(\C)[C@@H](O)[C@@H](OC)C(=O)[C@H](C)C[C@H](C)/C=C/C=C/C=C/1C: 5.44%
NC(=O)NS(=O)(=O)c1ccc(N)cc1: 89.3%
CC(=O)[C@H]1CC[C@H]2[C@@H]3CCC4=CC(=O)CC[C@]4(C)[C@H]3CC[C@]12C: 5.18%
Cc1cnc(NC(=O)C2=C(O)c3ccccc3S(=O)(=O)N2C)s1: 89.2%

Sample 4
SMILES: CNC(=O)Nc1ccc2c(c1)[C@@]1(CC2)OC(=O)N(CC(=O)N(Cc2ccc(F)cc2)[C@@H](C)C(F)(F)F)C1=O
Tested at: 1 µM
Measurement: remaining binding
SIK1 (Homo sapiens, UniProt P57059); competition binding: 90%
ACVR2A (Homo sapiens, UniProt P27037); cell-free assay, competition with immobilised ligand: 100%
IRAK3 (Homo sapiens, UniProt Q9Y616); cell-free assay, competition with immobilised ligand: 100%
EIF2AK2 (Homo sapiens, UniProt P19525); cell-free assay, competition with immobilised ligand: 100%
KDR (Homo sapiens, UniProt P35968); cell-free assay, competition with immobilised ligand: 84%
PAK1 (Homo sapiens, UniProt Q13153); cell-free assay, competition with immobilised ligand: 98%
DSTYK (Homo sapiens, UniProt Q6XUX3); cell-free assay, competition with immobilised ligand: 89%
CDK15 (Homo sapiens, UniProt Q96Q40); cell-free assay, competition with immobilised ligand: 100%
ALK (Homo sapiens, UniProt Q9UM73, C1156Y); cell-free assay, competition with immobilised ligand: 100%
TNNI3K (Homo sapiens, UniProt Q59H18); cell-free assay, competition with immobilised ligand: 98%
Tyrosine-protein kinase ABL1, phosphorylated (ABL1, Homo sapiens, UniProt P00519); cell-free assay, competition with immobilised ligand: 84%
NEK4 (Homo sapiens, UniProt P51957); cell-free assay, competition with immobilised ligand: 100%
PIP4K2B (Homo sapiens, UniProt P78356); cell-free assay, competition with immobilised ligand: 60%
GAK (Homo sapiens, UniProt O14976); cell-free assay, competition with immobilised ligand: 100%
BLK (Homo sapiens, UniProt P51451); cell-free assay, competition with immobilised ligand: 100%
Ribosomal protein S6 kinase alpha-3, C-terminal kinase domain (RPS6KA3, Homo sapiens, UniProt P51812); cell-free assay, competition with immobilised ligand: 84%
EGFR (Homo sapiens, UniProt P00533, L858R/T790M); cell-free assay, competition with immobilised ligand: 83%
CDK14 (Homo sapiens, UniProt O94921); cell-free assay, competition with immobilised ligand: 100%
RET (Homo sapiens, UniProt P07949, M918T); cell-free assay, competition with immobilised ligand: 100%
Tyrosine-protein kinase JAK3, JH1 (JAK3, Homo sapiens, UniProt P52333); cell-free assay, competition with immobilised ligand: 91%
PIK3C3 (Homo sapiens, UniProt Q8NEB9); cell-free assay, competition with immobilised ligand: 96%
Aurora kinase B (AURKB, Homo sapiens, UniProt Q96GD4); cell-free assay, competition with immobilised ligand: 93%

A few entries again (sample 1):
MAPK3 (Homo sapiens, UniProt P27361): 98.9%
FRK (Homo sapiens, UniProt P42685): 106%
ACVR1B (Homo sapiens, UniProt P36896): 98.8%
TBK1 (Homo sapiens, UniProt Q9UHD2): 93.4%
NEK1 (Homo sapiens, UniProt Q96PY6): 101%
